Assay results pooled from the literature.
Each line is one published result; not all experiments were run side by side. ± gives the spread as reported.

| Compound | test system | setting | scale | tissue uptake [%ID/g] |
| --- | --- | --- | --- | --- |
| N=C(N)NCc1ccc(C(=O)NCCCC[C@H](NC(=O)CCCCCCC(=O)NCCCC[C@H](NC(=O)N[C@@H](CCC(=O)O)C(=O)O)C(=O)O)C(=O)O)cc1[131I] | SCID mouse, PC-3 xenografts, blood | 2 h | – | 0.18 ± 0.07 |
| CCN(CC)c1ccc2c(-c3ccccc3C(=O)OCCC[18F])c3ccc(=[N+](CC)CC)cc-3oc2c1 | rat, liver | 60 min | – | 0.55 ± 0.11 |
| COc1ccc(C)cc1NC(=O)OC1CC2CCCC(C1)N2Cc1ccc(CC[18F])cc1 (centres unmarked) | BALB/c mice, EMT6 tumour, liver | 30 min | – | 28.5 ± 1.82 |
| CCNc1cc2[o+]c3cc(NCC)c(C)cc3c(-c3ccccc3C(=O)OCCOCC[18F])c2cc1C | rat, gut | 15 min | – | 3.83 ± 3.5 |
| N=C(N)NCc1ccc(C(=O)NCCCC[C@H](NC(=O)N[C@@H](CCC(=O)O)C(=O)O)C(=O)O)cc1[131I] | SCID mouse, PC-3 xenografts, brain | 2 h | – | 0.06 ± 0.02 |
| O=C(c1ccc(F)cc1)C1CCN(C2Cc3c(cccc3OCC[18F])CC2O)CC1 (single isomer, unassigned; (-)) | Sprague-Dawley rat, male, muscle | intravenous, dose not given, 30 min | – | 0.258 ± 0.025 |
| O=C(O)CC[C@H](NC(=O)O[C@@H](CCCCNC(=O)c1ccc([18F])cc1)C(=O)O)C(=O)O | mouse, PC-3 PIP/flu xenografts, lung | 90 min | – | 0.33 ± 0.05 |
| CN[C@](C)(C[18F])C(=O)O | SCID mouse A549 xenograft, spleen | 60 min, post injection | – | 5.6 ± 1.5 |
| CN(C)c1ccc(C(=O)NCCCCN2CCN(c3ccccc3O[11CH3])CC2)cc1 | male Sprague Dawley rat, lung | iv, 30 min | reference: untreated | 0.688 |
| CCN(CC)c1ccc2c(-c3ccccc3C(=O)OCCOCC[18F])c3ccc(=[N+](CC)CC)cc-3oc2c1 | rat, spleen | 60 min | – | 3.53 ± 0.57 |
| N=C(N)NCc1ccc(C(=O)NCCCC[C@H](NC(=O)N[C@@H](CCC(=O)O)C(=O)O)C(=O)O)cc1[211At] | SCID mouse, PC-3 xenografts, thyroid | 2 h | – | 0.77 ± 0.25 |
| COc1cc2ncnc(Oc3cccc(N[11C](=O)Nc4cc(C(C)(C)C(F)(F)F)on4)c3)c2cc1OC | Balb/c nude mouse, female, A375 melanoma xenograft, brain | 6.6 MBq, 60 min | – | 0.15 |
| N=C(N)NCc1ccc(C(=O)NCCCC[C@H](NC(=O)CCCCCCC(=O)NCCCC[C@H](NC(=O)N[C@@H](CCC(=O)O)C(=O)O)C(=O)O)C(=O)O)cc1[211At] | SCID mouse, PC-3 xenografts, bone | 2 h | – | 0.4 ± 0.04 |
| C=Cc1cc(O)cc2nc(-c3ccc(O)c([76Br])c3)oc12 | female C57BL/6 mouse, muscle | 1 h, high dose | – | 0.07 ± 0.02 |
